Results from different studies.
Every numbered part comes from another study and shows a few of its results, in no order. Positions count from the first letter of the parent shown.

Series 1
Target: Centromere-binding protein 1, full length, N-terminal tag (CBF1, Saccharomyces cerevisiae, UniProt P17106, residues 1-351)
Chain of UniProt P17106 (whole entry, looked up): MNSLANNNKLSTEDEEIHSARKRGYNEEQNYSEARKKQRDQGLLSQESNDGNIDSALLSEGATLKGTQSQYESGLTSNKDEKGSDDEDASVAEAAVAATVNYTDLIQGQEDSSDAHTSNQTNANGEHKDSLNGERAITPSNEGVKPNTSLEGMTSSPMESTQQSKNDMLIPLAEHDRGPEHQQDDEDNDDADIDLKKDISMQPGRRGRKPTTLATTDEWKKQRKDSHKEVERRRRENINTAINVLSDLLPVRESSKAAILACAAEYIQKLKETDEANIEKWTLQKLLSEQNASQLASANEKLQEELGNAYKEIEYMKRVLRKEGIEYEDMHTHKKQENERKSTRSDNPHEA
Method: protein-binding microarray
Form: double-stranded DNA, one strand shown
Sample: in vitro
Concentration: 0.8 µM
Setting: whole 60-bp probe, no competitor
Reading: higher = stronger binding
For `CTAGCCACATTTCATCACCTTTAAGTTAAGTACTTCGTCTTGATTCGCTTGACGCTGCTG`, the fluorescence intensity was 485 a.u.
The fluorescence intensity of `GAAACCCTGACGCAACTCGTCACCACGCTGTTGTAGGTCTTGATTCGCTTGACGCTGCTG` is reported as 550 a.u.
The fluorescence intensity of `CTATACAAGCTTTGGCACATGTTCGTGATACCTTTCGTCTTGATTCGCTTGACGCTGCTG` is reported as 944 a.u.
`CTACTTAAGCCACACCACGTAATTCTTGAAGACTTCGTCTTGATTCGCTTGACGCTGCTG` has a fluorescence intensity of 547 a.u.
For `GAAAAAAAAACCAGCCATCACCGAGATTGTGCTTAGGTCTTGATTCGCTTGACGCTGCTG`, the fluorescence intensity was 486 a.u.
For `CCTAACTACTATAGTAGATCACAATAGCTTCGTACAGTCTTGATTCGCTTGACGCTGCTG`, the fluorescence intensity was 551 a.u.
With `GAAAGATAAAAGCACCACCTTCTACCGGACCGTTAGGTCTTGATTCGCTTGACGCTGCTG` the fluorescence intensity was 503 a.u.
The fluorescence intensity of `TGTACGAAGCTATATCACCACTCTATAGTAGTTAGGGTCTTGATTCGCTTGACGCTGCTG` is reported as 506 a.u.
`CTACAAAAAATTCATCACGAAGTGCTAAAGGAATTCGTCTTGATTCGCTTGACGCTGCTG` gave a fluorescence intensity of 554 a.u.
With `GAAGATATTACTGATCACATGACTGTCTAATTTTAGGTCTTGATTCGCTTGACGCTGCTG` the fluorescence intensity was 14700 a.u.
For `GAAGATGAAGAACACCACCATTTCAGAAATTTTTAGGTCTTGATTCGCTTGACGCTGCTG`, the fluorescence intensity was 482 a.u.
The fluorescence intensity of `GAAGAAGAAGATATGCGTGCGCACAGAATCGATTAGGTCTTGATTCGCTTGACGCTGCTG` is reported as 501 a.u.
For `GAATGTATTATTGGTGGTGTCAGTAGGGGAAGATAGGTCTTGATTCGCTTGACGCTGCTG`, the fluorescence intensity was 579 a.u.
For `GAAAGAAATAAACATCACGTGATATGTAATACCTAGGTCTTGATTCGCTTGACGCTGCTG`, the fluorescence intensity was 37000 a.u.
`GAAAATGAGGCTTTGCTGGTGACAATTCAGAAATAGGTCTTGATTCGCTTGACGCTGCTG` has a fluorescence intensity of 557 a.u.
`CTACAGAAAATTTCAGGTGAGATAAGGTGCGGCTTCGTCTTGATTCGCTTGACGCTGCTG` gave a fluorescence intensity of 491 a.u.
With `CTAACGATCACAGTTCACGACACATCACGTGTGTTCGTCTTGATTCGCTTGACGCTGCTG` the fluorescence intensity was 9710 a.u.
`CTAATTCCTGTCGACTGCCTGATGTCAGTATTGTTCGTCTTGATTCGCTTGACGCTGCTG` has a fluorescence intensity of 536 a.u.
The fluorescence intensity of `CTATGCGTAGTATAGTGCGTGAGCTTATTGTGCTTCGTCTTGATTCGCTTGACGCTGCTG` is reported as 511 a.u.
With `CTAAGAAATGCCCATCATCAGAGCCACGCAACATTCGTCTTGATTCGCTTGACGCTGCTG` the fluorescence intensity was 536 a.u.
`GAAAATTCAATGAGCCATGTGAAATAGCGCGGGTAGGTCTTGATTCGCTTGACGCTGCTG` gave a fluorescence intensity of 541 a.u.
`GAAAAGCCTGTCTGCGACGTGCTCCGTCCTATTTAGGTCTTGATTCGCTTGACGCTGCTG` has a fluorescence intensity of 493 a.u.
With `GAATATGTAAACTCTGATGTAGGATCGCACTTTTAGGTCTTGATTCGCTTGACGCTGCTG` the fluorescence intensity was 549 a.u.
For `GAACAAATTTATAGTCAGCTGAAATATGTGAATTAGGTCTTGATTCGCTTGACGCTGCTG`, the fluorescence intensity was 752 a.u.
For `GAAAAATAAAATGCTGATGTTACTATTAGATTATAGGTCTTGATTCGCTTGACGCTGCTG`, the fluorescence intensity was 527 a.u.

Series 2
Target: CCNA2, cyclin fold, Cln2 fusion (human)
Method: yeast growth competition, sequencing
Sample: yeast
Setting: strong parent motif
Reference: not given
Reading: higher = stronger binding
Parent: PKMYT1 docking peptide (human); SFEPRNLLSLFED
`SFEPWNLLSLFED [R5W]` — result for “normalised enrichment score”: -0.715.
`SFEPRRLLSLFED [N6R]`: “normalised enrichment score” 1.89.
`SFEPRNLLHLFED [S9H]`: “normalised enrichment score” 2.4.
Under “normalised enrichment score”, `SNEPRNLLSLFED [F2N]` is recorded as -0.168.
For `SFEPPNLLSLFED [R5P]`, “normalised enrichment score” read -1.18.
For `SFEPRHLLSLFED [N6H]`, “normalised enrichment score” read 0.0496.
`SFEPRTLLSLFED [N6T]`: “normalised enrichment score” -0.000852.
For `SFEDRNLLSLFED [P4D]`, “normalised enrichment score” read -0.68.
`SFWPRNLLSLFED [E3W]`: “normalised enrichment score” 2.78.
`SFEPRNLLKLFED [S9K]`: “normalised enrichment score” 2.15.
`SFEPRNLLSLTED [F11T]`: “normalised enrichment score” -0.306.
`SFEPRNLLSNFED [L10N]` — result for “normalised enrichment score”: 1.91.
`SFEPRNLLSLRED [F11R]` — result for “normalised enrichment score”: -0.921.
`CFEPRNLLSLFED [S1C]` — result for “normalised enrichment score”: 3.28.
For `SFEPRNLLSLCED [F11C]`, “normalised enrichment score” read -0.952.
`SFEPRNLLSLFWD [E12W]`: “normalised enrichment score” 1.33.
Under “normalised enrichment score”, `SFYPRNLLSLFED [E3Y]` is recorded as 4.27.
Under “normalised enrichment score”, `SFEPRNLLSLFEM [D13M]` is recorded as 2.68.
For `SFEPRPLLSLFED [N6P]`, “normalised enrichment score” read -0.384.

Series 3
Target: ABI1, truncated, D143A, DHFR fusion (Arabidopsis thaliana)
Method: DHFR PCA, deep sequencing
Sample: yeast
Setting: methotrexate growth selection, single substitutions
Together with: (+)-ABA 58 µM
Reference: wild-type fitted maximum
Reading: higher = stronger binding
Parent: PYL1, truncated, DHFR fusion (Arabidopsis thaliana); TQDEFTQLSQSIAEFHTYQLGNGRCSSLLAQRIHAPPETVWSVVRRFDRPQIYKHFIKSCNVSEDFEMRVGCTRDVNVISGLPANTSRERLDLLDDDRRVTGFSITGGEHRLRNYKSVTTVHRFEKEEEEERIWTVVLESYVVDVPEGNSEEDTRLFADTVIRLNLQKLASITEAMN
For `V118T`, “relative binding score” read 96.3%.
Under “relative binding score”, `E64Q` is recorded as 88.4%.
Under “relative binding score”, `M176P` is recorded as 80.4%.
Under “relative binding score”, `K58F` is recorded as 54.3%.
Under “relative binding score”, `Q167K` is recorded as 87.9%.
`E147D` — result for “relative binding score”: 89.7%.
`E128T`: “relative binding score” 101%.
Under “relative binding score”, `V100H` is recorded as 35.2%.
`Q19S` — result for “relative binding score”: 87%.
For `R155F`, “relative binding score” read 6.25%.
`D48S` — result for “relative binding score”: 47.1%.
Under “relative binding score”, `I52V` is recorded as 87.5%.
For `N22V`, “relative binding score” read 91.6%.
`P146M`: “relative binding score” 26.7%.
`S87V`: “relative binding score” 20.8%.

Series 4
Target: Interferon regulatory factor 7, full length, phosphomimetic (IRF7, Homo sapiens, UniProt Q92985, residues 1-503, S471D/S472D/S475D/S476D/S477D/S483D/S484D/S487D)
Method: protein-binding microarray
Form: double-stranded DNA, one strand shown
Sample: in vitro
Concentration: 2200 nM top
Setting: 60-bp whole probe
Together with: salmon DNA 0.4 mg/ml
Reference: random background probes
Reading: higher = stronger binding
All sequences stand within: GCCTAGCAC … GTCTTGATTCGCTTGACGCTGCTG
Target sequence (chain): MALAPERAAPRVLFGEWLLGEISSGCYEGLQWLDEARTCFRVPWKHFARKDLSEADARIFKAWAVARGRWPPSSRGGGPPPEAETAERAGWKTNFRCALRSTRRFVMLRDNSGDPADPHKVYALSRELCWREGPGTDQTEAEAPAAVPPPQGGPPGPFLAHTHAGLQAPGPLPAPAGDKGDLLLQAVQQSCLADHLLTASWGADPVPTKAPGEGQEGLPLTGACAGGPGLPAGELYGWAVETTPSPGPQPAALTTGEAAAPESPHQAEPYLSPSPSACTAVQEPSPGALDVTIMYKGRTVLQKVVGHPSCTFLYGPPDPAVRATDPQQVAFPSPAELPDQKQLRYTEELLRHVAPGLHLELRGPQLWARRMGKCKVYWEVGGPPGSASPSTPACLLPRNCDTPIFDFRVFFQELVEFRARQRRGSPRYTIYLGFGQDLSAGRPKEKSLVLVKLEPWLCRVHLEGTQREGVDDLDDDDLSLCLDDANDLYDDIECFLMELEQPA
For `TCAATTTTCAGTATTACACTGTGCTAG`, “fitted relative affinity” read 2.25 z-score.
`GACGGTCTCCTTATCCGGACGTGCTAG` — result for “fitted relative affinity”: 0.62 z-score.
Under “fitted relative affinity”, `GACGGGTTCCTTCTCCTGACGTGCTAG` is recorded as 0.927 z-score.
`AACTTTCTCTGCTCTTTTCAAGTGCTA` — result for “fitted relative affinity”: 1.7 z-score.
`TTAGGACTGGGTTTTCGGTTAGTGCTA` — result for “fitted relative affinity”: 2.97 z-score.
`AATCAACTTTTTTTAATTGAGTGCTAG` — result for “fitted relative affinity”: -0.404 z-score.
Under “fitted relative affinity”, `GACGGTATCGGTATCGTGACGTGCTAG` is recorded as 0.567 z-score.
Under “fitted relative affinity”, `GACGAACTGCTTATCCTGACGTGCTAG` is recorded as 0.597 z-score.
For `GACGGTTTCCGTATCGGGACGTGCTAG`, “fitted relative affinity” read 2.94 z-score.
`TGGAAACTCGTATGTGACCTTGTGCTA`: “fitted relative affinity” 0.196 z-score.
`ACATATATACAGAGATAGATGTGCTAG`: “fitted relative affinity” 0.0536 z-score.
For `GAGGATATCAGTCTCGAGACGTGCTAG`, “fitted relative affinity” read 0.143 z-score.
For `ATCTTCATGAAGTTTTAATAAGTGCTA`, “fitted relative affinity” read -0.3 z-score.
Under “fitted relative affinity”, `TTAGGTTTTGACACTGGGTTAGTGCTA` is recorded as 0.102 z-score.
`TCAAGCCTCTGTTTTGAACTGTGCTAG` — result for “fitted relative affinity”: 0.826 z-score.
`GACGATATCGGGTATCGCGACGTGCTA`: “fitted relative affinity” 0.139 z-score.
`TCATTTTTCTAATTTACACTGTGCTAG`: “fitted relative affinity” 2.21 z-score.
`TCACAGCTCCCTTTCTCACTGTGCTAG`: “fitted relative affinity” 1.39 z-score.

Single results of other studies
Method: cross-linking MS
`PGRMC1 (Homo sapiens, UniProt O00264)`: cross-linked residues “K102 to K446” (DHCR24 (Homo sapiens, UniProt Q15392); cell fractions; together with: DSSO).
For `HSPD1 (Homo sapiens, UniProt P10809)`, interaction screen read “cross-linked” (PYCR2 (Homo sapiens, UniProt Q96C36); hits only).
`HNRNPU (Homo sapiens, UniProt Q00839)` — result for interaction screen: “cross-linked” (HNRNPD (Homo sapiens, UniProt Q14103); hits only).
Under cross-linked residues, `P4HB (Homo sapiens, UniProt P07237)` is recorded as “K71 to K519” (PSPC1 (Homo sapiens, UniProt Q8WXF1); cell fractions; together with: DSSO).

A few entries again (series 4):
`GACGGTCTCCTTATCCGGACGTGCTAG` — result for “fitted relative affinity”: 0.62 z-score.
Under “fitted relative affinity”, `GACGGGTTCCTTCTCCTGACGTGCTAG` is recorded as 0.927 z-score.
`AACTTTCTCTGCTCTTTTCAAGTGCTA` — result for “fitted relative affinity”: 1.7 z-score.
`TTAGGACTGGGTTTTCGGTTAGTGCTA` — result for “fitted relative affinity”: 2.97 z-score.
`AATCAACTTTTTTTAATTGAGTGCTAG` — result for “fitted relative affinity”: -0.404 z-score.
Under “fitted relative affinity”, `GACGGTATCGGTATCGTGACGTGCTAG` is recorded as 0.567 z-score.
Under “fitted relative affinity”, `GACGAACTGCTTATCCTGACGTGCTAG` is recorded as 0.597 z-score.
For `GACGGTTTCCGTATCGGGACGTGCTAG`, “fitted relative affinity” read 2.94 z-score.
`TGGAAACTCGTATGTGACCTTGTGCTA`: “fitted relative affinity” 0.196 z-score.
`ACATATATACAGAGATAGATGTGCTAG`: “fitted relative affinity” 0.0536 z-score.
For `GAGGATATCAGTCTCGAGACGTGCTAG`, “fitted relative affinity” read 0.143 z-score.
For `ATCTTCATGAAGTTTTAATAAGTGCTA`, “fitted relative affinity” read -0.3 z-score.
